# Assay results pooled from the literature.
# Each line is one published result; not all experiments were run side by side. ± gives the spread as reported.
Structure (SMILES),cell line,test,conditions,scale,endpoint,value
CC[C@H](C)[C@H](NC(=O)[C@H](C)NC(=O)[C@H](CCCNC(=N)N)NC(=O)[C@H](CCCNC(=N)N)NC(=O)[C@H](CC(N)=O)NC(=O)[C@H](CCCNC(=N)N)NC(=O)[C@H](CCCNC(=N)N)NC(=O)[C@H](C)NC(=O)[C@@H](NC(=O)[C@@H](NC(=O)[C@@H](NC(=O)[C@H](CS)NC(=O)[C@H](CCCCN)NC(=O)[C@@H](N)CCCNC(=N)N)C(C)C)[C@@H](C)CC)C(C)C)C(=O)N[C@H](C(=O)N[C@@H](CC(C)C)C(=O)N[C@@H](CS)C(=O)N[C@@H](CCCNC(=N)N)C(=O)O)[C@@H](C)CC,human red blood cells,,"128 µg/mL, 3 h, 37 °C",reference: Triton X-100,hemolysis,-0.4%
COc1ccc(-c2cc(=O)c3c(O)cc(O[C@@H]4O[C@H](CO[C@@H]5O[C@@H](C)[C@H](O)[C@@H](O)[C@H]5O)[C@@H](O)[C@H](O)[C@H]4O)cc3o2)cc1O,A549,"cell viability, MTS","3 days, 90% cells viable",,maximum non-toxic concentration,1710 ± 2.11 µM
CCOP(=S)(OCC)Oc1ccc([N+](=O)[O-])cc1,human iPSC-derived cardiomyocytes,"mitochondrial membrane potential, measured: JC-10 granules",30 min,,point of departure,< 30 µM
CN(C)N=O,HepaRG 3D spheroids,"DNA damage, measured: % tail DNA",24 h,reference: vehicle,lowest effective concentration,78.1 µM
Cn1c(C(=O)Nc2ccc(Cl)cc2)cc2c(=O)n3ccccc3nc21,Vero E6,MTT,,,IC50,193 ± 14.7 µM
C[C@@H]1CCO[C@H]2Cn3cc(C(=O)NCc4ccc(F)cc4F)c(=O)c(O)c3C(=O)N12,hCMEC/D3,,"5 µM, 1 h, in antiretroviral combination",,intracellular concentration,14.7 ± 1.41 ng/mL
CC(C)(C)OC(=O)N1CCC2(CC1)N=C(N)N=C(N)N2Cc1cccc(Cl)c1,MDCK,"microscopy, altered cell morphology",,,minimum cytotoxic concentration,> 100 µM
CCN(CC)N=O,"HepaRG, 2D culture",flow cytometry micronucleus,"highest tested concentration, 24 h, plus 3 days hEGF",reference: vehicle,relative survival,80.7%
Cc1nn(Cc2ccc(O)c(C=O)c2)c(=O)[nH]c1=O,HEL fibroblasts,"cell morphology, microscopy",,,minimum cytotoxic concentration,≥ 100 µM
Cn1c(C(=O)Nc2ccc3c(c2)OCCO3)cc2c(=O)n3ccccc3nc21,Vero E6,MTT,,,IC50,151 µM
N=C(N)NCCC[C@H](NC(=O)CCC(=O)OC[N+]1(c2cc(=O)c3cccc(-c4ccccc4)c3o2)CCOCC1)C(=O)NCC(=O)N[C@@H](CC(=O)O)C(=O)N[C@@H](CO)C(=O)[O-],RPMI-8226 cells,cell viability,48 h,,IC50,11.9 µM
O=NN1CCN(C2CCCC2)CC1,"HepaRG, 2D culture",flow cytometry micronucleus,"highest tested concentration, 24 h, plus 3 days hEGF",reference: vehicle,relative survival,61.3%
O=c1ccn([C@@H]2O[C@](F)(CO)[C@@H](O)C2(F)F)c(=O)[nH]1,HEL embryonic lung fibroblasts,"cell morphology, microscopy",,,minimum cytotoxic concentration,> 100 µM
C=C(C[C@H](N)C(=O)O)C(=O)NCc1ccc([N+](=O)[O-])cc1,MDA-MB-231,,24 h,reference: vehicle,concentration increasing cytotoxicity,320 µM
Nc1ccn(C[C@@H](CO)OCP(=O)(O)O)c(=O)n1,HEL fibroblasts,"cell morphology, microscopy",,,minimum cytotoxic concentration,317 µM
C=C(C[C@H](N)C(=O)O)C(=O)N1CCCCC1,MDA-MB-231,,72 h,reference: vehicle,concentration increasing cytotoxicity,10 µM
O=C(COc1ccc(-c2ccccc2)cc1)NC(=O)N[C@@H]1O[C@H](CO)[C@@H](O)[C@H](O)[C@H]1O,HEL fibroblasts,cell morphology,3 days,,minimal cytotoxic concentration,> 100 µM
CC[C@H](C)[C@H](NC(=O)[C@H](CCCNC(=N)N)NC(=O)[C@H](CC(C)C)NC(=O)[C@@H](NC(=O)[C@H](CO)NC(=O)[C@H](CC(C)C)NC(=O)[C@@H](NC(=O)[C@H](CCC(N)=O)NC(=O)[C@H](CO)NC(=O)[C@H](CC(C)C)NC(=O)[C@@H](N)Cc1ccccc1)[C@@H](C)CC)[C@@H](C)O)C(=O)N[C@@H](CC(C)C)C(=O)N[C@@H](CC(C)C)C(N)=O,human red blood cells,hemolysis,"1 h, 37 °C",,HC50,150 µM
CC(=O)c1cccc(NC(=O)c2cc3c(=O)n4ccccc4nc3n2C)c1,Vero E6,MTT,,,IC50,121 ± 9.21 µM
O=C(NC(=O)c1c(F)cccc1F)Nc1cc(Cl)c(F)c(Cl)c1F,Caco-2,Hoechst and PI staining,"25 µM, 48 h",reference: untreated,apoptotic cells ratio,3.9
COc1cccc2c1C(=O)c1c(O)c3c(c(O)c1C2=O)C[C@@](O)(C(=O)CO)C[C@@H]3O[C@H]1C[C@H](N)[C@H](O)[C@H](C)O1,HCT-8/ADR,,"concentration not given, 4 h after loading, 2 h loading then drug-free medium",,intracellular drug remaining,45%
O=c1[nH]c(=O)n([C@H]2C[C@H](O)[C@@H](CO)O2)cc1/C=C/Br,HEL embryonic lung fibroblasts,"cell morphology, microscopy",,,minimum cytotoxic concentration,> 300 µM
CC[C@H](C)[C@H](NC(=O)[C@H](CCCCN)NC(=O)[C@@H](NC(=O)[C@H](CC(N)=O)NC(=O)[C@H](C)NC(=O)[C@H](CCCNC(=N)N)NC(=O)[C@H](CCCNC(=N)N)NC(=O)[C@H](CC(N)=O)NC(=O)[C@H](CCCNC(=N)N)NC(=O)[C@H](CCCNC(=N)N)NC(=O)[C@H](C)NC(=O)[C@@H](NC(=O)[C@H](CO)NC(=O)[C@@H](NC(=O)[C@@H](NC(=O)[C@H](CS)NC(=O)[C@H](CCCCN)NC(=O)[C@@H](N)CCCNC(=N)N)C(C)C)[C@@H](C)CC)C(C)C)[C@@H](C)CC)C(=O)N[C@@H](CC(C)C)C(=O)N[C@@H](CS)C(=O)N[C@@H](CC(N)=O)C(=O)O,human red blood cells,,"128 µg/mL, 3 h, 37 °C",reference: Triton X-100,hemolysis,0.84%
CN(CCCC(=O)O)N=O,"HepaRG, 2D culture",flow cytometry micronucleus,"highest tested concentration, 24 h, plus 3 days hEGF",reference: vehicle,relative survival,63.5%
C=C(C[C@H](N)C(=O)O)C(=O)Nc1ccccc1,MDA-MB-231,,72 h,reference: vehicle,concentration increasing cytotoxicity,100 µM
CC(C)N(N=O)C(C)C,HepaRG 3D spheroids,"DNA damage, measured: % tail DNA",24 h,reference: vehicle,lowest effective concentration,5000 µM
CC(C)CCCCCCCOP(=O)(Oc1ccccc1)Oc1ccccc1,human iPSC-derived cardiomyocytes,"mitochondrial membrane potential, measured: JC-10 granules",30 min,,point of departure,< 30 µM
NC1=NC2(CCN(C(=O)c3ccc4ccccc4c3)CC2)N(c2cccc(Cl)c2)C(N)=N1,MDCK,"microscopy, altered cell morphology",,,minimum cytotoxic concentration,≥ 4 µM
N#Cc1nn(-c2c(Cl)cc(C(F)(F)F)cc2Cl)c(N)c1[S+]([O-])C(F)(F)F (stereo not drawn),Caco-2,Hoechst and PI staining,"25 µM, 48 h",reference: untreated,apoptotic cells ratio,8.6
CON=C(N)c1ccc(-c2ccc(-c3ccc(C(N)=NOC)cc3)o2)cc1,HepaRG,"cell growth or viability, resazurin",,,IC50,82.5 µM
CSCCC(NS(=O)(=O)NCc1cccc(Oc2ccccc2)c1)C(=O)NCCN1CCOCC1.Cl (racemic),HG23 norovirus replicon cells,,48 h,,TD50,230 ± 34 µM
N=C(N)NCCC[C@H](NC(=O)C(=Cc1ccccc1)NC(=O)[C@@H](N)CCCNC(=N)N)C(=O)NCC(=O)N[C@@H](CC(=O)O)C(N)=O,T cells cocultured with dendritic cells,ELISA,77 to 386 µM,,IFN-γ secretion,< 4 pg/mL
CCOP(=S)(OCC)Oc1nc(Cl)c(Cl)cc1Cl,human iPSC-derived cardiomyocytes,"mitochondrial membrane potential, measured: JC-10 granules",30 min,,point of departure,< 30 µM
C[C@H](Cn1cnc2c(N)ncnc21)OCP(=O)(O)O,hCMEC/D3,,"10 µM, 1 h, 37 °C",,intracellular accumulation,5.32 ± 1.07 pmol/mg protein
CCCCN(CCCC)N=O,HepaRG 3D spheroids,cell viability,"concentration not given, 24 h",reference: vehicle,ATP level,83.5%
COc1ccc2cc3[n+](cc2c1OC)CCc1cc2c(cc1-3)OCO2,human iPSC-derived cardiomyocytes,"mitochondrial membrane potential, measured: JC-10 granules",30 min,,point of departure,< 30 µM

# A few entries again:
Structure (SMILES),cell line,test,conditions,scale,endpoint,value
CSCCC(NS(=O)(=O)NCc1cccc(Oc2ccccc2)c1)C(=O)NCCN1CCOCC1.Cl (racemic),HG23 norovirus replicon cells,,48 h,,TD50,230 ± 34 µM
N=C(N)NCCC[C@H](NC(=O)C(=Cc1ccccc1)NC(=O)[C@@H](N)CCCNC(=N)N)C(=O)NCC(=O)N[C@@H](CC(=O)O)C(N)=O,T cells cocultured with dendritic cells,ELISA,77 to 386 µM,,IFN-γ secretion,< 4 pg/mL
CCOP(=S)(OCC)Oc1nc(Cl)c(Cl)cc1Cl,human iPSC-derived cardiomyocytes,"mitochondrial membrane potential, measured: JC-10 granules",30 min,,point of departure,< 30 µM
C[C@H](Cn1cnc2c(N)ncnc21)OCP(=O)(O)O,hCMEC/D3,,"10 µM, 1 h, 37 °C",,intracellular accumulation,5.32 ± 1.07 pmol/mg protein
